Published values gathered from unrelated publications.
Numbered parts are unrelated; each lists some results of a single study.

Sample 1 — method: RNA Bind-n-Seq; molecule type: RNA; sample: in vitro; tested at: 365 nM; relative to: no-protein control; reading: higher = stronger binding
Target: RNA binding protein fox-1 homolog 2, RRM domain, GST-SBP tag (RBFOX2, Homo sapiens, UniProt O43251-10, residues 100-194)
Notes: natural RNA segment, single round, ends assumed
Constant ends, left off below: GGGAGUUCUACAGUCCGACGAUC … UGGAAUUCUCGGGUGCCAA
Target sequence (chain): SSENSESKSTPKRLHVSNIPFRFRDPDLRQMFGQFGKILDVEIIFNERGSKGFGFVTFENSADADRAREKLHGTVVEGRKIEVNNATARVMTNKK
| Strand | RBNS enrichment (R) |
| --- | --- |
| UGGUGAAUCUAUCUCUCCGGAGAUAAUUUCAUACAGAGAUUUUAAGAAAACAUCUUUAUAUUAAAAAAGAUCUCAUUUGAUCCUUAAGCCAGUCUCAUGAAUGAAAAGGA | 0.841 |
| AUUGAGCUCUGUUGUAAAUACAUCGCACCAGAGGCCACUGUGACGCCGCUGUCUCCUCCUCUCCAUCCCGCCCAGCCAUGUGACACCGGCUCUUGUAGAGGGCAUCCCCA | 0.431 |
| AACCCCAAAUGAAACCUGGGAUUUUGAAUGUGGCUCUAAGAGUUAACAUUGCUGUCUGUAUGUCGUGUAUGCUAGGUGAUAUCCUCAGUAGGGAUUGACUACUAGACUGU | 0.801 |
| CUUUUCAGAAAAUUGUCCCUUUCCGGAAGGCCUCCUAGUCUUAUUCGGUGAUGACUCUUGUUAUCUUUUGUGUCCUGUAACCUCAUCGGGAUUGUCUUUUUUUUUUUUAA | 0.636 |
| UGUCCUUCCCUCUCCCAGUUAAAACGGAUGACCAAAGACCUUUCUUAUGCCGGAAGCAAAAACCAAACUUUUUGUUGGCUUUUUCUUUUGCCGCCUCCCGAGCACCCUGC | 0.587 |
| UAUUAACGAGAUGGCCCUGGCAGGCGGGAACAAAUCUGCCUCCAUGCACUGCUUCCUGUAGUCUUUUAGAAAGUAACUCCAGGACAUCGAAGUGCCCAGAUUUGACUCCU | 0.258 |
| CAGGAAAUGAUACCCAGAACUAUGAUCGUGAUAGAGUCGAGUGUCCAACUACCUUCACAGCACCCAGUGAUCAAGGUGAUGACGGUUGAGAACCUGAAAGUGCAUACUGA | 0.404 |
| GGGUUCGGACAGGAUAGCUGAGGCUGCUGUCUCACACCCUCUAGCACAUGUAGUCCUGAGUCCUUCCUGCCGGAGAUGCCACCGGUUGCACAGCCCUCAAGAGGCCCCUU | 0.455 |
| CCCUGUUUCCCCUUCUGCCUCCGUUUCCCCAGCAGGACCACACUGCCUGUGGGACAAAGGACAGGAUGUAUGAAUUUAGGCCAAAGGUCCUAUGGUCCAUUUGCAGGGUU | 0.478 |
| GGUGAUGGGUAAGAUUUUUGAAAGCCUUAUAUUUUUUGAUUUUGUUGUCUAGUUUAAUCCUACCUUUAAUAGUUGUGUUUGGUAAAAUUCCCACUUGAAUGUGACACUGA | 2.57 |
| UUGGUUUCUAGAAGGAAGGGAAAUAAUAUUUCUUGAGCAUUUACUAGGGUGUUGCGUGCUGUGCUAAGUAAAUUUUAAGUCUUUCAGUUUUAUAGAUACGGAAAACAAGG | 2.35 |
| GUGUUAAACAAGAACAACAAAAAAAGGUCUCAUUGUGUAGCCCUAGCUGCUUAUAACUCGCUCUGUAGACCUGGCUGGUGUCAAACUGGAGAUCCUCCUUCCUCUGCCUC | 0.349 |

Sample 2 — method: protein-binding microarray; molecule type: double-stranded DNA, one strand shown; sample: in vitro; tested at: 250 nM; notes: 60-bp whole probe; together with: salmon DNA 0.4 mg/ml; relative to: random background probes; reading: higher = stronger binding; constant ends, left off below: GCCTAGCAC … GTCTTGATTCGCTTGACGCTGCTG
Target: Interferon regulatory factor 7, full length, phosphomimetic (IRF7, Homo sapiens, UniProt Q92985, residues 1-503, S101K/S471D/S472D/S475D/S476D/S477D/S483D/S484D/S487D)
Sequence of UniProt Q92985 (whole entry, unmodified, looked up): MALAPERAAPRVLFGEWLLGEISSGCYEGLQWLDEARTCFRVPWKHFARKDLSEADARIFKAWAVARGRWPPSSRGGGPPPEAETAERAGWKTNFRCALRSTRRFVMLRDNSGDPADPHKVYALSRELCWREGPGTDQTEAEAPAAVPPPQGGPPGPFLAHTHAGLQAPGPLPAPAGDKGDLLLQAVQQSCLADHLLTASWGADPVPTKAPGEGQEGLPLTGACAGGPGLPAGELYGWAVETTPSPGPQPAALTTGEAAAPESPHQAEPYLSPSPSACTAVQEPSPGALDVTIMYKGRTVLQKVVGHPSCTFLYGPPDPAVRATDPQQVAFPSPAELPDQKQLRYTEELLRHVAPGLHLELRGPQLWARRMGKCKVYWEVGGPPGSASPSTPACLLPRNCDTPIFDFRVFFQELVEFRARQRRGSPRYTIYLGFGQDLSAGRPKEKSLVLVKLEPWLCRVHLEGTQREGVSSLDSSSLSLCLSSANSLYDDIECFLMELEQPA
| Strand | log fluorescence [z-score] |
| --- | --- |
| GACGGTTTGGGTTCCGGGACGTGCTAG | 0.545 |
| TTAGAACTGGGGACTGGATTGGTGCTA | -0.227 |
| TTTTAAAATGGACACTGTACAGTGCTA | 0.163 |
| TTAGGTATCGATCTCGGTTAGTGCTAG | 1.59 |
| TTAGATGCCAGTTTCGATTAGTGCTAG | 7.85 |
| TTAGGTATCGAAACTGGGTTAGTGCTA | 1.68 |
| TTAGGACTGCATCTCCTTTAGTGCTAG | -0.0439 |
| GACGGTTTCGGTTCCGGGAGGTGCTAG | 13 |
| TTAGATTTCGGGTATCGATTCGTGCTA | 3.35 |
| TTAGGACTGGTTATCGGTTAGTGCTAG | 0.625 |
| TTAGGTTTCGACTATCGGTGAGTGCTA | 5.36 |
| TCAACTTTCCAATTGTCACTGTGCTAG | 1.84 |
| GACGGTTTCGACTATCGGGAGGTGCTA | 5.79 |
| TTAGCTCTCAGTATCGATTAGTGCTAG | 0.788 |
| TTAGACTTCGGGTATCGATTAGTGCTA | 0.52 |
| TTCGGTTTCGGGTTTCGGTTAGTGCTA | 12.7 |
| TCCCCTCTCATTCCAATTCTGTGCTAG | 0.638 |
| AAAAATTAGTGTTTCCCCTAGTGCTAG | 0.549 |
| GACGATTTCGGGACAGGAGACGTGCTA | 0.23 |
| CTCTACATGTGTTTAAGAATGTGCTAG | 0.0223 |
| TTAGGACTGGAGTATCGGTTAGTGCTA | 0.132 |
| GACGATATCGGGTAGCGAGACGTGCTA | -0.537 |
| TTAGGACAGGGGTTTCGGTTAGTGCTA | 5.8 |
| TCAGAGCTCTGTCTGGGACTGTGCTAG | -1.14 |
| TTAGCTATCGACACTGGGTTAGTGCTA | -0.347 |

Sample 3 — method: RNA Bind-n-Seq; molecule type: RNA; sample: in vitro; tested at: 100 nM; relative to: input RNA pool; reading: higher = stronger binding
Target: RING finger protein unkempt homolog, zinc fingers 1-6, SBP tag (UNK, Homo sapiens, UniProt Q9C0B0, residues 30-357)
Sequence of UniProt Q9C0B0 (30-357, looked up): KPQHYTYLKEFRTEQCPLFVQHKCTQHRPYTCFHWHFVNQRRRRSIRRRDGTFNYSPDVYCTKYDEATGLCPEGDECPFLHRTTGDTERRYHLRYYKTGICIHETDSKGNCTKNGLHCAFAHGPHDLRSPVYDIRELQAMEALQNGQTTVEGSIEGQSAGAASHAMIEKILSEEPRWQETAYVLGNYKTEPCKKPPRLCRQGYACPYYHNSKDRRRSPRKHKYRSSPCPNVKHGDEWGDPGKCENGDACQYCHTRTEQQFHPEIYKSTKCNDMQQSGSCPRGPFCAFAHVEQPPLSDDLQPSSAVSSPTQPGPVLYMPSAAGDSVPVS
Notes: RNA with constant flanks, vertebrate orthologous sites, ends assumed
Constant ends, left off below: GGGAGUUCUACAGUCCGACGAUC … CAACAGAGGAUUGAGCAUCA
| Strand | bound/input enrichment [ratio] |
| --- | --- |
| UCAGAGCAGCAUAGGCUGUUGAGCUGUGGAAAAAUGAGCUUUGCAUUUUUUAUAUUUAAAUAGGAUACUUUUAUAUGAUGGGUGCUCUGAGUGUGAAUGCAGCACUCUCCCUUUCAGAGC | 1.35 |
| AUUUAAAAUGUGUUCAGUUAUAUUUAAUGAUCUCAUUCCUGAGUUCCUAUUUCAUUAAAGUAGCUUCCAUUUCUAUUUCCACAGUUAUGAAUAAAUAGAAGGUUUAUGCCAGUAGACACU | 0.225 |
| GUUGGGCCAUGACCCCUAUAGAUUAGGUCAUGAUGCUUACAGGUUAGGACAGGACCCUUAUAGAUUAGGCCACGAUCCCUACAGACUAACUCCUGAUCCCUACAGGAUGUCACCUAGACC | 0.702 |
| ACAGGAGCAGCAUAGGCUGUUUGAGCUUUGGGGAAAUGAGCUUUGCUUUUUAUAUUUAGCUAGGAUACUUUUAUAUGAUGGGUGCUUUGAGUGUGAAUGCAGCAGGCUCUCUUGUUUCCG | 1.47 |
| AAUAGUUUUAAGCUUGUUUGCACAGUUUUUCCUUUCCAUUGGAGAUGGAAUUCAUUGCCUUAGGUCUUUUUAAUAGUGUAUUGUUAUUGUUGGGCUGGCUCUAUGCUUGAAAACCAGUUU | 1.89 |
| CUGAAGCUUUGUGUUUGGCUGCACCUGCAUAAGCUGCUACAAAUAGAAUAAAGAAUUUCAUAGCCUGUAUCUAUCAUUUAGAUGCAUGGGAAAAUGGGCUUUGCACACAAUGGGUUUGGA | 2.19 |
| GCUCUAGUUCUUAACAACCGACACUCCUAAAAGAUUUAGAAAAAAGUUUACAACAUAAUCUAGUUUACAGAAAAAUCUUGUGCUAGAAUACUUUUUAAAAGGUAUUUUGAAUACGAUUAA | 0.715 |
| AAGAACUCUUGCAGUCUUAGAUGUUAUAAAAAAUAUAUAUAUCUGAAUUGUAAGAGUUGUUAGCACAGGUUUUUUUCUUUUUUUUUUAAAGCACUUGUUUUGGGUACAAGGCAUGUCUGA | 0.365 |
| CUCUACGGGCCUCGCAGAGUGGAGAUAAUGGAAGAGGAAAGUGAACAGUAAUCUUCAUUUUAGUAUUUAUGCUUAGGUGUGAAAUAAAUGUUAUUUGUUGAUCAUAUCUAUAACCCAGAG | 0.751 |
| GUGUUUUGGUACCACUCAAUGUACCAAUACUCAUCCUUUUUUCAUUAUACCAACUAUCACUAGAAAUAGGAGUUUAAUAUUUUAAAAAUUUUACAUUGCUGUAUAUUCAAAAUUUUAAAG | 0.511 |
| CACAUCUGGUGAUAUUUGGCCUGGCCUUUCAGCUUAUGAUAAUAGUCCCAGAUCACCCCAUAGUCCUUCACCUAUUGCUACACCACCUAGUCAGAGUUCAUCUUGCUCAGAUGCCCCUAU | 1.24 |

Sample 4 — method: protein binding microarray; molecule type: double-stranded DNA, one strand shown; sample: in vitro; tested at: not given; relative to: not given; reading: higher = stronger binding
Target: Histone acetyltransferase KAT6A, winged helix 1, GST fusion (KAT6A, Homo sapiens, UniProt Q92794, residues 1-85)
Notes: 8-mer, flanks averaged, mean of 2 arrays, mostly near background
Target sequence (chain): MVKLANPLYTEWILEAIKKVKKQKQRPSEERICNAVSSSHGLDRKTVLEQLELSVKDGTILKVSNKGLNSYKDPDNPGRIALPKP
| Strand | E-score |
| --- | --- |
| ATCCTGTC | -0.1 |
| ATCACCAT | -0.0225 |
| GGCATACA | -0.0408 |
| GAGTCCAA | -0.0982 |
| ATCCATGA | -0.29 |
| CCTTGATC | -0.118 |
| CAAGCGTG | 0.117 |
| AACCTTAC | -0.0919 |
| AGTCTCGC | -0.0621 |
| GATAGCAA | -0.286 |
| ATAGATCG | -0.00573 |
| GCTAGGCA | -0.00555 |
| GGTATGCA | -0.141 |
| ATTTAAGC | -0.0687 |
| ACGAATCA | -0.147 |
| AGCACGCA | -0.00876 |
| AGACGTAA | -0.212 |
| AAGCGATT | 0.0184 |
| CTGTAAGC | -0.0315 |
| AGTTGCAG | -0.242 |
| CCCCGACC | 0.0948 |
| CATTCGTA | -0.155 |
| GGCAGAAC | 0.0056 |
| ACATGTCC | 0.0203 |
| AATCCACC | -0.21 |

A few entries again (sample 3):
| Strand | bound/input enrichment [ratio] |
| --- | --- |
| GUUGGGCCAUGACCCCUAUAGAUUAGGUCAUGAUGCUUACAGGUUAGGACAGGACCCUUAUAGAUUAGGCCACGAUCCCUACAGACUAACUCCUGAUCCCUACAGGAUGUCACCUAGACC | 0.702 |
| ACAGGAGCAGCAUAGGCUGUUUGAGCUUUGGGGAAAUGAGCUUUGCUUUUUAUAUUUAGCUAGGAUACUUUUAUAUGAUGGGUGCUUUGAGUGUGAAUGCAGCAGGCUCUCUUGUUUCCG | 1.47 |
| AAUAGUUUUAAGCUUGUUUGCACAGUUUUUCCUUUCCAUUGGAGAUGGAAUUCAUUGCCUUAGGUCUUUUUAAUAGUGUAUUGUUAUUGUUGGGCUGGCUCUAUGCUUGAAAACCAGUUU | 1.89 |
| CUGAAGCUUUGUGUUUGGCUGCACCUGCAUAAGCUGCUACAAAUAGAAUAAAGAAUUUCAUAGCCUGUAUCUAUCAUUUAGAUGCAUGGGAAAAUGGGCUUUGCACACAAUGGGUUUGGA | 2.19 |
| GCUCUAGUUCUUAACAACCGACACUCCUAAAAGAUUUAGAAAAAAGUUUACAACAUAAUCUAGUUUACAGAAAAAUCUUGUGCUAGAAUACUUUUUAAAAGGUAUUUUGAAUACGAUUAA | 0.715 |
